Results gathered from unrelated publications.
Numbered parts are unrelated; each lists some results of a single study.
Chain of UniProt Q5XXA6 (whole entry, unmodified, looked up): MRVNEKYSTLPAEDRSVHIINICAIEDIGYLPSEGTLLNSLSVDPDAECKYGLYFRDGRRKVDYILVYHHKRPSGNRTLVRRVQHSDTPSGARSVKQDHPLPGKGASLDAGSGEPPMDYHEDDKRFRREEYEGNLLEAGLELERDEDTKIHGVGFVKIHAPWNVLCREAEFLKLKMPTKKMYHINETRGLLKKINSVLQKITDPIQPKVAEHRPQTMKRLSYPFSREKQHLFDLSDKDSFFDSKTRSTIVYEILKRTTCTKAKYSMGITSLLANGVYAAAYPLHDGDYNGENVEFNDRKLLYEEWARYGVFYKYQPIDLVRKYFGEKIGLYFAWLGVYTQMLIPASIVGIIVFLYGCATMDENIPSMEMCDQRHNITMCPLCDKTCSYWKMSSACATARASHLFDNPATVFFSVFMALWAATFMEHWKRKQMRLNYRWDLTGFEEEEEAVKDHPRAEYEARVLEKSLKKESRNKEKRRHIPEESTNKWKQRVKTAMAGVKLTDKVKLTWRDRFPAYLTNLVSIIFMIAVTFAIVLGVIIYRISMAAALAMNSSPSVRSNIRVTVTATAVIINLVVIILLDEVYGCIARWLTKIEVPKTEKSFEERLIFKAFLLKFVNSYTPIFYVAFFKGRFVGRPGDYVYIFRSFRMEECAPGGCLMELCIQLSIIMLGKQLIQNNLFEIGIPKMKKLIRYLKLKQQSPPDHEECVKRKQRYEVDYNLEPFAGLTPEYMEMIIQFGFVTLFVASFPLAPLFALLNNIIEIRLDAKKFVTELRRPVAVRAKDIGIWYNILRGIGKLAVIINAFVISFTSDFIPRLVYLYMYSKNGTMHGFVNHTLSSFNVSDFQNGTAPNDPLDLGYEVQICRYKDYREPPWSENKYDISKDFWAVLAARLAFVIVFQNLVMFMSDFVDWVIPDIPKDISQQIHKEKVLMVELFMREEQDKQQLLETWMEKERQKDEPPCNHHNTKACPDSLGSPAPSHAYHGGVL
Chain of UniProt P27037 (whole entry, looked up): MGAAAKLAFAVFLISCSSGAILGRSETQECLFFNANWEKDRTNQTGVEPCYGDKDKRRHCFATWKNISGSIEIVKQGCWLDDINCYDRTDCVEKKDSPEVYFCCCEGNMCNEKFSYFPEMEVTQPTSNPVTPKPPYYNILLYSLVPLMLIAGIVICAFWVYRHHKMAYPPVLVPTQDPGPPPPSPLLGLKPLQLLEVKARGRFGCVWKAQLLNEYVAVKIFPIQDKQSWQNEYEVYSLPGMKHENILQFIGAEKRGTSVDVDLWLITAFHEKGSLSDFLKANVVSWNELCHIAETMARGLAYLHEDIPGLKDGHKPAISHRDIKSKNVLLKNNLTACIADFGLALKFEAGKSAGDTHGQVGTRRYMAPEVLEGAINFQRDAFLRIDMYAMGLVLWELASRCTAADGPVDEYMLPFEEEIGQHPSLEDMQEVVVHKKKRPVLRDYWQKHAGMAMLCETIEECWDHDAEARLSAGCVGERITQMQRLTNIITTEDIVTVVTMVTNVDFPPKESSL
Chain of UniProt P49841 (whole entry, looked up): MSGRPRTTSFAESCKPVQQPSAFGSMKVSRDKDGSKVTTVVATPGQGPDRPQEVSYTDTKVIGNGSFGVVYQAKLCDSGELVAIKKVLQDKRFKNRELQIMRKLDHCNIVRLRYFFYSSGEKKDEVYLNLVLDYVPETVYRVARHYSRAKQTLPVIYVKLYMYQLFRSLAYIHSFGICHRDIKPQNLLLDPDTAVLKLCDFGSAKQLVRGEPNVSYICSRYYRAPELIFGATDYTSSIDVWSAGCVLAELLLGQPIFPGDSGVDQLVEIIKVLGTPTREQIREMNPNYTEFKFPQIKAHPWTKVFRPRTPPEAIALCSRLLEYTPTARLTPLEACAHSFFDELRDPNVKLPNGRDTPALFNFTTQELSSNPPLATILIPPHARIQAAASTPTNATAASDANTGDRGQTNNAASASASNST
Chain of UniProt Q8NFD2 (whole entry, looked up): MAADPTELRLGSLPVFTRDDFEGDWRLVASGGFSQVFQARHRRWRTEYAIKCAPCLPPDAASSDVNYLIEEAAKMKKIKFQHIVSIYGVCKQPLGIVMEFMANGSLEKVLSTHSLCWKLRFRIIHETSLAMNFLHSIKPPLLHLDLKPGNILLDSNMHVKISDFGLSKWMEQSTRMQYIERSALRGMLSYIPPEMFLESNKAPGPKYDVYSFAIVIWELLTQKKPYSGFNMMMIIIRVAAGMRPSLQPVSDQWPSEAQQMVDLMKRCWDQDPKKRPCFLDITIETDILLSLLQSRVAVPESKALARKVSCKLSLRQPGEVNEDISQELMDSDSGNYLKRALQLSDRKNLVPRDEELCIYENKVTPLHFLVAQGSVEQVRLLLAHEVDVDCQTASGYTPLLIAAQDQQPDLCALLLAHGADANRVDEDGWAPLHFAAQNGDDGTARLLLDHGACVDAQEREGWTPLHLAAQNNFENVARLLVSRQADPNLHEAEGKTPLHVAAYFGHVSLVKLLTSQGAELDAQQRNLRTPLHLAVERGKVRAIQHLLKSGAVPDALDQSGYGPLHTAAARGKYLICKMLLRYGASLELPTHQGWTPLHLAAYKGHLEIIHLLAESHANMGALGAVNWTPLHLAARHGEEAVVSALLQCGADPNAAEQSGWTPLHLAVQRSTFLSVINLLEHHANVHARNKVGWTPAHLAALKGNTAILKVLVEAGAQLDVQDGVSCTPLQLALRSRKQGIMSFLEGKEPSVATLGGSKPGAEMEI
Chain of UniProt Q15349 (whole entry, looked up): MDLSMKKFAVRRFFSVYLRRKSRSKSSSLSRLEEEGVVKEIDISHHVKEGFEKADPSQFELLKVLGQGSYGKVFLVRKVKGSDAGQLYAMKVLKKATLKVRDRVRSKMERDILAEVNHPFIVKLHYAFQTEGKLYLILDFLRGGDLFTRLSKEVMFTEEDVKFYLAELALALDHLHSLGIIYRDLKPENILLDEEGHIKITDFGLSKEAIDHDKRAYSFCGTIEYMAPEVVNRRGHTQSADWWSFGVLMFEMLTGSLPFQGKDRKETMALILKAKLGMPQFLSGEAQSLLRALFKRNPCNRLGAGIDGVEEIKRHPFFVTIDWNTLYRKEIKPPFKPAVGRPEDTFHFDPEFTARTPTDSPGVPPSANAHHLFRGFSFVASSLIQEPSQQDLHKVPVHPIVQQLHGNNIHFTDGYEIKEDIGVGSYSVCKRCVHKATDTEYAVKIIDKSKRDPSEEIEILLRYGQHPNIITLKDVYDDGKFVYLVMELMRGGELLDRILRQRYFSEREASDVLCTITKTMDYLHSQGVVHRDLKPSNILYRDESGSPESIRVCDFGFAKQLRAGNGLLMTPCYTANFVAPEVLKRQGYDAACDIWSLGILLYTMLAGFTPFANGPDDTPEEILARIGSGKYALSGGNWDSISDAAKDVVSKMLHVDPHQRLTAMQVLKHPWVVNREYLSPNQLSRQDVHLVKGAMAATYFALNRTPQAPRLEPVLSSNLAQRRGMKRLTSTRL
Chain of UniProt O14757 (whole entry, looked up): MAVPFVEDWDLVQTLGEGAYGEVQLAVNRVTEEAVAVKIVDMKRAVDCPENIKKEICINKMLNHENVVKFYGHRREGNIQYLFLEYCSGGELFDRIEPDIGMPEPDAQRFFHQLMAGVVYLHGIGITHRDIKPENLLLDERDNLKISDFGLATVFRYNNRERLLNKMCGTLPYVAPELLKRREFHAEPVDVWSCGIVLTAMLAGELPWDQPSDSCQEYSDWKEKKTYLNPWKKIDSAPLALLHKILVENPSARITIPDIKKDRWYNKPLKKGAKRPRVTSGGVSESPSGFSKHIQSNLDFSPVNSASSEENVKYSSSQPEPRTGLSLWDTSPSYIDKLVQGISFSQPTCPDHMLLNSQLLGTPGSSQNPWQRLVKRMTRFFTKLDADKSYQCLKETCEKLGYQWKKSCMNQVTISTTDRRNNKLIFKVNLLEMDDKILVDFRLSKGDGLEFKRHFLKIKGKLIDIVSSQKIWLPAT
Chain of UniProt P53671 (whole entry, looked up): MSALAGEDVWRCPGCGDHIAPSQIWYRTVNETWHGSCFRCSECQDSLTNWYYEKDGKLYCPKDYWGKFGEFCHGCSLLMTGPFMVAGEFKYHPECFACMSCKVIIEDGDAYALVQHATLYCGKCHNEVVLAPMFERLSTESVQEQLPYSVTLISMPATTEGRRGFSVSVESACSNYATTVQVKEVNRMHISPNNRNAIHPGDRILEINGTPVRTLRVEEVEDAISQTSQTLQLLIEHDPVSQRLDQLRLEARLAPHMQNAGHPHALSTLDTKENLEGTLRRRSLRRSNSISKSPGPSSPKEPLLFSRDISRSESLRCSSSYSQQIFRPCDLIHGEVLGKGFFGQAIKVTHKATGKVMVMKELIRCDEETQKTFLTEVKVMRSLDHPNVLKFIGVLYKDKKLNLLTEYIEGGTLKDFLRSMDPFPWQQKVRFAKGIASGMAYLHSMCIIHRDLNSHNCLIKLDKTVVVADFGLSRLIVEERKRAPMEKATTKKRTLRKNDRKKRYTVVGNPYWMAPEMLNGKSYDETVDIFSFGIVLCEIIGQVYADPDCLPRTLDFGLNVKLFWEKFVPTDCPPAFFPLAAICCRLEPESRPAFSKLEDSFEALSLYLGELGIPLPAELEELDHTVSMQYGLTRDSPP

Series 1
Cell line: mouse MPNST tumor cells
Technique: high-content immunofluorescence imaging
Refers to: nuclear SOX9
Concentration: 10 µM
Time: 12 h
Notes: mean of 2 replicates
Relative to: DMSO control
Reading: higher = more nuclear SOX9
Quantity: nuclear SOX9 intensity
SMILES = CC(=O)[C@H]1CC[C@H]2[C@@H]3CCC4=CC(=O)CC[C@]4(C)[C@H]3CC[C@]12C; result = 99.9 % of DMSO
SMILES = CC1(C)CN2C(CSC(=NC3CCCCC3)NC3CCCCC3)=CSC2=N1; result = 147 % of DMSO
SMILES = O=C(O)c1c(Sc2ccccc2)c2cc(Cl)ccc2n1Cc1ccc(Cl)cc1; result = 90.3 % of DMSO
SMILES = O=C(Nc1nc2ccc(NC(=O)C34CC5CC(CC(C5)C3)C4)cc2s1)c1ccccc1; result = 173 % of DMSO
SMILES = O=S(=O)(N[C@H](CO)C(C(F)(F)F)C(F)(F)F)c1ccc(Cl)s1; result = 100 % of DMSO
SMILES = O=C(O)c1ccc(O)c2ncccc12; result = 103 % of DMSO

Series 2
Target: Calcium/calmodulin-dependent protein kinase type II subunit alpha (CAMK2A, Homo sapiens, UniProt Q9UQM7)
Chain of UniProt Q9UQM7 (whole entry, looked up): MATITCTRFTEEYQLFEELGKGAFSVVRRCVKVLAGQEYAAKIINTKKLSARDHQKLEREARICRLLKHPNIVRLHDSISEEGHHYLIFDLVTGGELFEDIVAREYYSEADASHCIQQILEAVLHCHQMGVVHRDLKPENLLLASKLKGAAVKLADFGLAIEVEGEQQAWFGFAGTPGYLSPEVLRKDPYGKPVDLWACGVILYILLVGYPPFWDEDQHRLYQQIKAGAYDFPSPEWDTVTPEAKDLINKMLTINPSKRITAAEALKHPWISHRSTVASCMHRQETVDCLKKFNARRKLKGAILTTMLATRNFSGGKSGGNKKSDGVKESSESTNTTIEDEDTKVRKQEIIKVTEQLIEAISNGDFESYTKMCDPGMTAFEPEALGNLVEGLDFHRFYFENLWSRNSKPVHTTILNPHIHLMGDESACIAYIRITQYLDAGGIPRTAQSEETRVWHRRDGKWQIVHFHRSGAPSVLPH
Effect on: enzyme activity
Mode: inhibitor
Concentration: 10 µM
Quantity: inhibition
Structure (SMILES) = CCCC[C@H](C)C[C@H](O)/C=C/[C@H]1[C@H](O)CC(=O)[C@@H]1CCCC/C=C/C(=O)O; result = -6%
Structure (SMILES) = CC(C)c1cc2c(cc1S(=O)(=O)O)[C@@]1(C)CCC[C@@](C)(C(=O)O)[C@@H]1CC2; result = 2%
Structure (SMILES) = COc1ccc2c(C)cc(=O)oc2c1O; result = 1%
Structure (SMILES) = Nc1nc(O)c2[nH]nnc2n1; result = 5%
Structure (SMILES) = C[C@H]1CC[C@@H](C(C)(C)O)CC2=C1CC[C@@H]2C; result = -43%

Series 3
Compound: C=CCc1ccc(O)c(-c2ccc(O)c(CC=C)c2)c1
Quantity: normalized current
target = Anoctamin-1 (ANO1, Homo sapiens, UniProt Q5XXA6); test = chloride current, inside-out patch clamp; conditions = 10 µM, membrane voltage -20 mV; result = -0.148
target = Anoctamin-1 (ANO1, Homo sapiens, UniProt Q5XXA6, del476-501); test = chloride current, whole-cell voltage clamp; conditions = 1 µM, wild type, I-V at 40 mV, added: 4 µM Ca2+; result = 0.376
target = Anoctamin-1 (ANO1, Homo sapiens, UniProt Q5XXA6, del476-501/E649A); test = ion current, inside-out patch clamp; conditions = 10 µM, E623A mutant at 100 mV; result = 0.822
target = Anoctamin-1 (ANO1, Homo sapiens, UniProt Q5XXA6, del476-501/K430L); test = chloride current, whole-cell voltage clamp; conditions = concentration not given; result = 0.401
target = Anoctamin-1 (ANO1, Homo sapiens, UniProt Q5XXA6, del476-501/F628A); test = chloride current, whole-cell voltage clamp; conditions = 100 µM, I-V at 100 mV, added: 4 µM Ca2+; result = 0.292

Series 4
Species: human
Sample: microsomes or S9
Concentration: 2 µM
Time: 0.5 h
Quantity: remaining compound
SMILES = CC(C)n1cc(NC(=O)C2(C)Oc3ccccc3NC2=O)cn1 (stereo not shown); result = 86%
SMILES = COc1cc(=O)n(C)cc1C(=O)N1CCN(S(=O)(=O)C2CC2)CC1; result = 90%
SMILES = CCOC(=O)c1[nH]c(C)c(C(=O)CN2C(=O)NC(C)(C)C2=O)c1C; result = 34.5%
SMILES = COc1cc(OC)nc(Oc2ccc(OC(C)C(=O)O)cc2)n1 (stereo not shown); result = 40.8%

Series 5
Compound: C[C@H](c1cccc(C#N)c1)n1cc(Cl)cc(C(N)=O)c1=N
Effect on: cell-free assay
Technique: competition with immobilised ligand
Concentration: 1 µM
Quantity: remaining binding
target = CAMK1D (Homo sapiens, UniProt Q8IU85); result = 97%
target = LIM domain kinase 2 (LIMK2, Homo sapiens, UniProt P53671); result = 100%
target = FLT3 (Homo sapiens, UniProt P36888, D835H); result = 80%
target = ANKK1 (Homo sapiens, UniProt Q8NFD2); result = 98%
target = GSK3B (Homo sapiens, UniProt P49841); result = 95%
target = MAP4K3 (Homo sapiens, UniProt Q8IVH8); result = 76%
target = FLT3 (Homo sapiens, UniProt P36888, N841I); result = 97%
target = DYRK1B (Homo sapiens, UniProt Q9Y463); result = 63%
target = Ribosomal protein S6 kinase alpha-2, C-terminal kinase domain (RPS6KA2, Homo sapiens, UniProt Q15349); result = 62%
target = TIE1 (Homo sapiens, UniProt P35590); result = 100%
target = CHEK1 (Homo sapiens, UniProt O14757); result = 100%
target = ACVR2A (Homo sapiens, UniProt P27037); result = 100%
target = RET (Homo sapiens, UniProt P07949); result = 94%
target = GRK2 (Homo sapiens, UniProt P25098); result = 81%
target = LIM domain kinase 1 (LIMK1, Homo sapiens, UniProt P53667); result = 88%
target = MAPKAPK2 (Homo sapiens, UniProt P49137); result = 100%
target = KIT (Homo sapiens, UniProt P10721); result = 87%

Excerpt of the above (series 1):
SMILES = O=C(Nc1nc2ccc(NC(=O)C34CC5CC(CC(C5)C3)C4)cc2s1)c1ccccc1; result = 173 % of DMSO
SMILES = O=S(=O)(N[C@H](CO)C(C(F)(F)F)C(F)(F)F)c1ccc(Cl)s1; result = 100 % of DMSO
SMILES = CC(=O)[C@H]1CC[C@H]2[C@@H]3CCC4=CC(=O)CC[C@]4(C)[C@H]3CC[C@]12C; result = 99.9 % of DMSO
SMILES = O=C(O)c1c(Sc2ccccc2)c2cc(Cl)ccc2n1Cc1ccc(Cl)cc1; result = 90.3 % of DMSO
SMILES = CC1(C)CN2C(CSC(=NC3CCCCC3)NC3CCCCC3)=CSC2=N1; result = 147 % of DMSO
SMILES = O=C(O)c1ccc(O)c2ncccc12; result = 103 % of DMSO
